Assay results collected from several papers.
Each line is one published result; not all experiments were run side by side. ± marks the error that the study gave.

`O=C(COc1ccc(-c2ccccc2)cc1)N[C@@H]1O[C@H](CO)[C@@H](O)[C@H](O)[C@H]1O` has an IC50 of > 250 µM (human T-lymphocyte; cell growth or viability; 72 h).
`O=C1/C(=C/c2ccccc2F)CNC/C1=C\c1ccccc1F` has an IC50 of 2.1 µM (GES1; cell growth or viability, MTT; 72 h).
`CC(C)c1cccc(C(C)C)c1[N+]#[C][Pt-]([Cl])([Cl])=[C](Nc1cccc(CN[C](Nc2c(C(C)C)cccc2C(C)C)=[Au][Cl])c1)Nc1c(C(C)C)cccc1C(C)C` gave an IC50 of > 100 µM (MRC5; cell growth or viability).
`Clc1cc2nc(-c3cc4ccccc4nc3Cl)[nH]c2cc1Cl` gave an IC50 of > 100 µM (L02; cell growth or viability, MTT; 48 h).
The IC50 of `CCCC(CCC)C(=O)[O][Pt]([Cl])([Cl])[O]C(=O)C(CCC)CCC.N.N` is reported as 1.13 µM (BXPC-3; cell growth or viability).
With `COc1ccc(C(C)(O)C(C)(C)C(=O)O)cc1` (centres unmarked) the IC50 was > 200 µM (LS174; cell growth or viability; 72 h).
For `CO[C@@H]1[C@@H](O[C@@H]2O[C@H](C)[C@@H](O[C@H]3C[C@@](C)(O)[C@@H](OC(=O)NC4CCCCC4)[C@H](C)O3)[C@H](N(C)C)[C@H]2O)[C@@H](CC=O)C[C@@H](C)[C@@H](O[C@H]2CC[C@H](N(C)C)[C@@H](C)O2)/C=C/C=C/C[C@@H](C)OC(=O)C[C@H]1O`, the IC50 was > 50 µM (GES1; cell growth or viability, CCK-8; 72 h).
`[Fe+2].c1cc[cH-]c1.c1ccc(P(=NCc2ccccn2)(c2ccccc2)[c-]2cccc2)cc1` has an IC50 of > 50 µM (HEK-293T; cell growth or viability, MTT; 74 h).
`Cc1nc([N+](=O)[O-])c(N2CCNCC2)n1Cc1ccccc1` has an IC50 of > 500 µM (normal human dental fibroblasts; cell viability, MTT; 72 h).
For `N#CCOc1ccc(-c2ccc3[nH]c4ncc(/C=C/c5ccccc5)cc4c3c2)cc1`, the IC50 was 1.6 µM (Ba/F3 NPM-ALK; cell proliferation, [3H]-thymidine incorporation).
The IC50 of `Cc1ccc(Nc2ccn3ncc(-c4ccc5c(c4)CN([C@H]4CCC(=O)NC4=O)C5=O)c3n2)cc1Cl` is reported as > 10 µM (MOLM-13 CRBN knock-out; cell viability, CellTiter-Glo; 72 h).
`CC(=O)C1=C(C)NC(SCC(=O)c2ccccc2)=C(C#N)C1c1sccc1C` (centres unmarked) has an IC50 of 1.86 ± 0.26 µM (HeLa with GR; NF-κB reporter transrepression; together with: TNF-α 5 ng/mL; relative to: dexamethasone 10 µM).
For `CN1CCN(c2ccc(Nc3ncc(Cl)c(Nc4ccccc4P(C)(C)=O)n3)cc2Br)CC1`, the IC50 was 0.09 µM (BaF3 EGFR 19del/T790M/C797S; cell growth, inhibitor, CCK-8; 72 h).
The IC50 of `COc1cccc(Cn2cc(COc3c(OC)ccc4cc5[n+](cc34)CCc3cc4c(cc3-5)OCO4)nn2)c1` is reported as 21.7 µM (SMMC-7721; cell growth or viability, MTT).
`CC(C)N(C[C@H]1O[C@@H](n2cnc3c(N)ncnc32)[C@H](O)[C@@H]1O)C1CC2CN(Cc3ccc(S(C)(=O)=O)cc3)CC2C1` (some centres unmarked) has an IC50 of > 100 µM (H460 wild type; cell growth; 72 h).
For `COc1cccc(-c2ccc(Nc3ccc(CN(C)C)cc3)c(OC)c2F)c1`, the IC50 was 11.1 µM (NCI-H441; cell growth or viability, ATP luminescence; 72 h).
The IC50 of `C[C@]1([N+](=O)[O-])C(=O)c2ccccc2O[C@@H]1CC(=O)OC12CC3CC(CC(C3)C1)C2` is reported as > 100 µM (human Fibroblast; cell growth or viability, SRB; 96 h).
`Cc1ncsc1-c1ccc(C(CO)NC(=O)C2CC(O)CN2C(=O)C(C(C)C)n2cc(-c3ccc(COc4c(-c5c(C)c(F)cc6[nH]ncc56)c(C5CC5)cc5c(N6CC7CC6CN7)nc(OC6CCOCC6)nc45)cc3)nn2)cc1` (centres unmarked) gave an IC50 of > 10 µM (A-375 (KRAS wild type); cell growth, CellTiter-Glo; 144 h, 3D culture).
With `CCCCCCCCCCCCCCCCn1c(-c2cccnc2)nc(-c2ccc(C)cc2)c1-c1ccc(C)cc1` the IC50 was > 100 µM (BT-474; cell growth or viability, SRB; 48 h).
`CC(C)(C)OC(=O)NCC(N)CN.[Cl][Pt][Cl]` (centres unmarked) has an IC50 of 16.7 µM (KB 3-1; cell growth or viability, ATP luminescence; 72 h).
For `CCCCCCCCn1c(-c2cccnc2)nc(-c2ccccc2)c1-c1ccccc1`, the IC50 was 29.2 µM (BT-474; cell growth or viability, SRB; 24 h).
With `CCNc1cc2c(cc1C)C1(c3cc(C)c(NCC)cc3O2)c2ccccc2C(=O)N1N=Cc1c[c-]c(-c2ccccn2)cc1.Cc1c(C)c(-c2ccc(-c3ccccc3)cc2)[c-](C)c1C.[Cl-].[Ir+3]` the IC50 was 18.7 ± 2.7 µM (HeLa human cancer cells; cell growth, MTT; 24 h).
With `Clc1nc2cc3c(cc2cc1-c1nc2cc(Br)ccc2[nH]1)OCO3` the IC50 was > 100 µM (L02; cell growth or viability, MTT; 48 h).
The IC50 of `COc1ccc2cc3[n+](cc2c1OCc1cn(Cc2ccccc2Br)nn1)CCc1cc2c(cc1-3)OCO2` is reported as 24.3 µM (SMMC-7721; cell growth or viability, MTT).
With `N#Cc1cccc(-c2ccc(=O)n(Cc3cccc(-c4ncc(OCC5CCN(CCCCCC(=O)Nc6cccc7c6C(=O)N(C6CCC(=O)NC6=O)C7=O)CC5)cn4)c3)n2)c1` (centres unmarked) the IC50 was 0.00805 µM (EBC-1; cell growth or viability, CCK-8; 72 h).
The IC50 of `CC(=O)N[C@H](Cc1ccccc1)C(=O)N[C@@H](CC(=O)N[C@H](CCCNC(=N)N)C(N)=O)c1ccc2ccccc2c1` is reported as 0.595 µM (BT-474; cell growth or viability, ATP luminescence; 72 h).
`CCn1cc(/C=C/c2sc3ccccc3[n+]2CC)c2ccccc21` has an IC50 of 5.18 µM (HTB26; cell growth or viability, MTT; 24 h).
For `N#Cc1cccc(-c2ccc(=O)n(Cc3cccc(-c4ncc(OCC5CCN(CCCCCCC(=O)Nc6cccc7c6C(=O)N(C6CCC(=O)NC6=O)C7=O)CC5)cn4)c3)n2)c1` (centres unmarked), the IC50 was 0.00563 µM (EBC-1; cell growth or viability, CCK-8; 72 h).
`CC/C(=C(\c1ccc(O)cc1)c1ccc(OCCN(C)CCOCCOCCN(C)CCOc2ccc(/C(=C(/CC)c3ccccc3)c3ccc(O)cc3)cc2)cc1)c1ccccc1` has an IC50 of 0.07 µM (MCF7 (ER-positive); cell growth; 96 h).
The IC50 of `C=C[CH2][Pd-]([Cl])[Cl].Cc1cc(C)c(-n2c[n+](-c3c(C)cc(C)cc3C)c3c2-c2cccc4cccc-3c24)c(C)c1` is reported as 5 µM (NTERA2; cell growth or viability, MTT; 72 h).
`Cc1ccc2nc(Cl)c(-c3nc4cc(C)c(C)cc4[nH]3)cc2c1` gave an IC50 of > 100 µM (BEL-7404; cell growth or viability, MTT; 48 h).
`COc1c(O)cc2oc3cc4c(c(O)c3c(=O)c2c1CC=C(C)C)CC(O)O4` (centres unmarked) gave an IC50 of 11.9 µM (SMMC-7721; cell growth or viability; 48 h).
`CCCCCC(=O)O[C@H]1[C@H](C)O[C@@H](O[C@H]2[C@H](N(C)C)[C@@H](O)[C@H](O[C@H]3[C@@H](CC=O)C[C@@H](C)[C@@H](O[C@H]4CC[C@H](N(C)C)[C@@H](C)O4)/C=C/C=C/C[C@@H](C)OC(=O)C[C@@H](O)[C@@H]3OC)O[C@@H]2C)C[C@@]1(C)O` has an IC50 of 38.8 µM (GES1; cell growth or viability, CCK-8; 72 h).
`Cc1ccc2nc(Cl)c(-c3nc4ccccc4[nH]3)cc2c1` has an IC50 of > 100 µM (L02; cell growth or viability, MTT; 48 h).
`CN1CCCNC(=O)CC2(CCCCC2)CC(=O)NCCCN(C)CCCNc2cccc3c2C(=O)c2cccc(c2C3=O)NCCC1` has an IC50 of > 20 µM (mouse bone marrow cells; cell proliferation, CCK-8; 48 h).
With `CC(=O)Oc1ccccc1/C=C/C(=O)Nc1nc(=O)n([C@@H]2O[C@H](C)[C@@H](OC(C)=O)[C@H]2OC(C)=O)cc1F` the IC50 was 26.9 µM (BXPC-3; cell growth or viability, MTT; 72 h).
`CCCCCCCCn1c(-c2cccnc2)nc(-c2ccc(C)cc2)c1-c1ccc(C)cc1` has an IC50 of 39.9 µM (BT-474; cell growth or viability, SRB; 48 h).
`COc1c(OCc2ccccc2)cc2oc3cc(OCc4ccccc4)c(CC=C(C)C)c(O)c3c(=O)c2c1CC=C(C)C` has an IC50 of 11.6 µM (SMMC-7721; cell growth or viability; 48 h).
`Fc1ccc2[nH]c(-c3cc4ccccc4nc3Cl)nc2c1` gave an IC50 of > 100 µM (BEL-7404; cell growth or viability, MTT; 48 h).
With `CC(=O)OC[C@H]1O[C@@H](NC(=O)COc2ccc(-c3ccccc3)cc2)[C@H](OC(C)=O)[C@@H](OC(C)=O)[C@@H]1OC(C)=O` the IC50 was 180 µM (human T-lymphocyte; cell growth or viability; 72 h).
For `CC(=O)c1cnc(N)nc1N1CC[C@H]1c1nn2ccc(Cl)c2c(=O)n1-c1ccccc1`, the IC50 was < 0.01 µM (purified human B cells; refers to: CD69 and IL-6; together with: anti-IgM).
The IC50 of `O=C1CCC(N2C(=O)c3cccc(NCC(=O)N4CCN(c5ccc(Nc6nc(Oc7ccccc7)c7occc7n6)cc5)CC4)c3C2=O)C(=O)N1` (centres unmarked) is reported as 0.003 µM (MM1.S; cell growth or viability, resazurin; 5 days).
`CO[C@@H]1[C@@H](O[C@@H]2O[C@H](C)[C@@H](O[C@H]3C[C@@](C)(O)[C@@H](OC(=O)c4ccc(C(C)(C)C)cc4)[C@H](C)O3)[C@H](N(C)C)[C@H]2O)[C@@H](CC=O)C[C@@H](C)[C@@H](O[C@H]2CC[C@H](N(C)C)[C@@H](C)O2)/C=C/C=C/C[C@@H](C)OC(=O)C[C@H]1O` has an IC50 of 3.34 µM (GES1; cell growth or viability, CCK-8; 72 h).
With `CC(C)c1cccc(C(C)C)c1-n1c2c([n+](-c3c(C(C)C)cccc3C(C)C)[c]1[Au-][Cl])-c1cccc3cccc-2c13` the IC50 was 40 µM (NTERA2; cell growth or viability, MTT; 72 h).
The IC50 of `O=C(CCCc1ccc2c(c1)CCCC2)N[C@@H]1O[C@H](CO)[C@@H](O)[C@H](O)[C@H]1O` is reported as > 250 µM (human T-lymphocyte; cell growth or viability; 72 h).
`COC1CCC(Nc2nc(-c3nccn3C)nc3sc(-c4ccn(C)n4)c(-c4ccccc4)c23)C1` (centres unmarked) gave an IC50 of ~7 µM (MIA PaCa-2 (KRAS G12C); Western blot, refers to: phospho-Akt; 6 h, together with: EGF 15 min).
`Cc1cc(C)c(N[C](NCc2cccc(N[C](Nc3c(C(C)C)cccc3C(C)C)=[Pd-]([Cl])([Cl])[C]#[N+]c3c(C(C)C)cccc3C(C)C)c2)=[Au][Cl])c(C)c1` gave an IC50 of > 100 µM (MRC5; cell growth or viability).
`CN1CCN(C(=O)c2cccc(-c3ccc4[nH]c5ncc(/C=C/c6ccccc6)cc5c4c3)c2)CC1` has an IC50 of 2.2 µM (Ba/F3 NPM-ALK; cell proliferation, [3H]-thymidine incorporation).
The IC50 of `N#Cc1cccc(-c2ccc(=O)n(Cc3cccc(-c4ncc(OCC5CCN(CCCC(=O)Nc6cccc7c6C(=O)N(C6CCC(=O)NC6=O)C7=O)CC5)cn4)c3)n2)c1` (centres unmarked) is reported as 0.0109 µM (EBC-1; cell growth or viability, CCK-8; 72 h).
With `CC1(C)CCC(CN2CCN(c3ccc(C(=O)NS(=O)(=O)c4ccc(NCC5COCCO5)c([N+](=O)[O-])c4)c(N4CCCOc5nc6[nH]ccc6cc54)c3)CC2)=C(c2ccc(Cl)cc2)C1` (centres unmarked) the IC50 was 7.5e-05 µM (primary human CLL cells; apoptosis; NK Tert stroma co-culture).

A few entries again:
With `Clc1nc2cc3c(cc2cc1-c1nc2cc(Br)ccc2[nH]1)OCO3` the IC50 was > 100 µM (L02; cell growth or viability, MTT; 48 h).
The IC50 of `COc1ccc2cc3[n+](cc2c1OCc1cn(Cc2ccccc2Br)nn1)CCc1cc2c(cc1-3)OCO2` is reported as 24.3 µM (SMMC-7721; cell growth or viability, MTT).
With `N#Cc1cccc(-c2ccc(=O)n(Cc3cccc(-c4ncc(OCC5CCN(CCCCCC(=O)Nc6cccc7c6C(=O)N(C6CCC(=O)NC6=O)C7=O)CC5)cn4)c3)n2)c1` (centres unmarked) the IC50 was 0.00805 µM (EBC-1; cell growth or viability, CCK-8; 72 h).
The IC50 of `CC(=O)N[C@H](Cc1ccccc1)C(=O)N[C@@H](CC(=O)N[C@H](CCCNC(=N)N)C(N)=O)c1ccc2ccccc2c1` is reported as 0.595 µM (BT-474; cell growth or viability, ATP luminescence; 72 h).
`CCn1cc(/C=C/c2sc3ccccc3[n+]2CC)c2ccccc21` has an IC50 of 5.18 µM (HTB26; cell growth or viability, MTT; 24 h).
For `N#Cc1cccc(-c2ccc(=O)n(Cc3cccc(-c4ncc(OCC5CCN(CCCCCCC(=O)Nc6cccc7c6C(=O)N(C6CCC(=O)NC6=O)C7=O)CC5)cn4)c3)n2)c1` (centres unmarked), the IC50 was 0.00563 µM (EBC-1; cell growth or viability, CCK-8; 72 h).
`CC/C(=C(\c1ccc(O)cc1)c1ccc(OCCN(C)CCOCCOCCN(C)CCOc2ccc(/C(=C(/CC)c3ccccc3)c3ccc(O)cc3)cc2)cc1)c1ccccc1` has an IC50 of 0.07 µM (MCF7 (ER-positive); cell growth; 96 h).
The IC50 of `C=C[CH2][Pd-]([Cl])[Cl].Cc1cc(C)c(-n2c[n+](-c3c(C)cc(C)cc3C)c3c2-c2cccc4cccc-3c24)c(C)c1` is reported as 5 µM (NTERA2; cell growth or viability, MTT; 72 h).
